{"data": "Measurements gathered from unrelated publications", "note": "Values joined by “and” are separate records of one study, mostly repeats; a detail may differ. ± gives the spread as reported."}
{"SMILES": "COC1OC(C)C(OC2OC(C)C(O)C(OC3OC(C)C(OC4OC(C)C(O)C(OC5OC(C)C(OC6OC(C)C(O)C(OC7OC(C)C(OC8OC(C)C(O)C(OS(=O)(=O)O)C8OS(=O)(=O)O)C(OS(=O)(=O)O)C7OS(=O)(=O)O)C6OS(=O)(=O)O)C(OS(=O)(=O)O)C5OS(=O)(=O)O)C4OS(=O)(=O)O)C(OS(=O)(=O)O)C3OS(=O)(=O)O)C2OS(=O)(=O)O)C(OS(=O)(=O)O)C1OS(=O)(=O)O (stereo not drawn)", "system": "human plasma", "conditions": "64 µg/mL", "endpoint": "activated partial thromboplastin time", "value": "159 s and 160 s and 173 s"}
{"SMILES": "COc1ccc(NC(=O)c2ccc3[nH]c(-c4ccc(N(C)C)cc4)nc3c2)cn1", "system": "CT26, BALB/c mice, subcutaneous syngeneic graft", "conditions": "dose not given, day 2", "endpoint": "tumour volume", "value": "56.3 mm3 and 82.3 mm3 and 70.1 mm3 and 71.7 mm3 and 97.1 mm3"}
{"SMILES": "O=C1CCC(N2Cc3ccccc3C2=O)C(=O)N1 (stereo not drawn)", "assay": "deuterium-hydrogen exchange", "system": "aqueous phosphate buffer", "conditions": "pH 7.4, 37 °C", "endpoint": "exchange rate constant", "value": "-0.0354 h⁻¹"}
{"SMILES": "O=C(CCC(F)(F)F)Nc1ccc(C2CCCCC2)cc1", "assay": "hepatocyte stability", "system": "cryopreserved mouse hepatocytes", "conditions": "1 µM", "endpoint": "hepatic clearance", "value": "76 mL/min/kg"}
{"SMILES": "C[C@@H](Nc1c(-c2c(F)cc(C#N)cc2F)c(Cl)nc2ncnn12)C(C)(C)C", "assay": "microtubule stabilization, measured: detyrosinated tubulin", "system": "wild-type mice, brain", "endpoint": "minimum effective dose", "value": "1 mg/kg"}
{"SMILES": "O=C([O-])CN1CCN(CC(=O)[O-])CCN(CC(=O)c2ccc(-c3ccc(OCC(=O)O)cc3)cc2)CCN(CC(=O)[O-])CC1.[Gd+3]", "system": "mouse serum", "conditions": "0.3 mM, 25 °C, 7 T", "endpoint": "T1 relaxation time", "value": "558 ms"}
{"SMILES": "COC1CN([C@H]2CC[C@H]([C@@]3(C)Oc4c(Cl)cc(C(=O)NCc5c(SC)cc(C)[nH]c5=O)c(C)c4O3)CC2)C1", "assay": "RNA-seq, measured: TCF7L2", "system": "human, whole blood", "conditions": "dose not given, 24 h", "how to read": "baseline: pretreatment baseline", "endpoint": "log2 fold change", "value": 1.17}
{"SMILES": "COC(=O)C1CN1S(=O)(=O)c1ccc2cc(C)ccc2c1 (stereo not drawn)", "system": "mouse, Lewis lung carcinoma", "conditions": "ip, 100 mg/kg, 216 h", "endpoint": "tumour volume", "value": "316 mm3"}
{"SMILES": "COC1OC(C)C(OS(=O)(=O)O)C(OC2OC(C)C(OS(=O)(=O)O)C(OC3OC(C)C(OS(=O)(=O)O)C(OC4OC(C)C(OS(=O)(=O)O)C(OC5OC(C)C(OS(=O)(=O)O)C(OC6OC(C)C(OS(=O)(=O)O)C(OC7OC(C)C(OS(=O)(=O)O)C(OS(=O)(=O)O)C7OS(=O)(=O)O)C6OS(=O)(=O)O)C5OS(=O)(=O)O)C4OS(=O)(=O)O)C3OS(=O)(=O)O)C2OS(=O)(=O)O)C1OS(=O)(=O)O (stereo not drawn)", "system": "human plasma", "conditions": "16 µg/mL", "endpoint": "activated partial thromboplastin time", "value": "59.3 s and 57.5 s and 58.3 s"}
{"SMILES": "COc1cc(O)ccc1CCC(c1ccc(O)cc1)c1cc2c(c(C)c1O)OC(c1ccc(O)cc1)CC2 (mixture of isomers)", "system": "human blood", "conditions": "0.3 µM, added: A23187", "endpoint": "TXB2 level", "value": "587 ± 159 pg/mL"}
{"SMILES": "Nc1ncc(-c2ccc([C@H]3[C@@H](F)[C@@H](F)C[C@@H](F)[C@H]3F)cc2)cn1", "assay": "hepatocyte stability", "system": "cryopreserved mouse hepatocytes", "conditions": "1 µM", "endpoint": "hepatic clearance", "value": "21 mL/min/kg"}
{"SMILES": "COC1OC(C)C(OC2OC(C)C(O)C(OC3OC(C)C(OC4OC(C)C(O)C(OC5OC(C)C(OC6OC(C)C(O)C(OC7OC(C)C(OC8OC(C)C(O)C(OC9OC(C)C(O)C(OS(=O)(=O)O)C9OS(=O)(=O)O)C8OS(=O)(=O)O)C(OS(=O)(=O)O)C7OS(=O)(=O)O)C6OS(=O)(=O)O)C(OS(=O)(=O)O)C5OS(=O)(=O)O)C4OS(=O)(=O)O)C(OS(=O)(=O)O)C3OS(=O)(=O)O)C2OS(=O)(=O)O)C(OS(=O)(=O)O)C1OS(=O)(=O)O (stereo not drawn)", "system": "human plasma", "conditions": "16 µg/mL", "endpoint": "activated partial thromboplastin time", "value": "53.5 s and 53.6 s and 53.2 s"}
{"note": "A few entries again:"}
{"SMILES": "O=C1CCC(N2Cc3ccccc3C2=O)C(=O)N1 (stereo not drawn)", "assay": "deuterium-hydrogen exchange", "system": "aqueous phosphate buffer", "conditions": "pH 7.4, 37 °C", "endpoint": "exchange rate constant", "value": "-0.0354 h⁻¹"}
